Experimental data pooled from the literature.
Every numbered part comes from another study and shows a few of its results, in no order. Changes are numbered by the printed parent chain.

Set 1
Target: JUN, bZIP domain (human)
Method: DHFR protein complementation
Sample: yeast
Notes: single substitutions, most at no-binding floor
Relative to: wild-type JUN-FOS pair
Reading: higher = stronger binding
Parent: JUN, bZIP domain (human); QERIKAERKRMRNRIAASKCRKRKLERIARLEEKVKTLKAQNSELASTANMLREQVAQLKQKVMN; partner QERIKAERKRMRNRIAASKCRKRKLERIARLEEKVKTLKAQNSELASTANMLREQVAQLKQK
`A57R` gave a binding fitness of -0.315 natural log.
The binding fitness of `R53I` is reported as -0.98 natural log.
With `S43V` the binding fitness was -0.256 natural log.
With `A46Y` the binding fitness was -0.494 natural log.
The binding fitness of `L31V` is reported as -1.19 natural log.
With `A46D` the binding fitness was -0.913 natural log.
With `A46R` the binding fitness was -0.178 natural log.
`A40Y` has a binding fitness of -0.635 natural log.
`E32I` has a binding fitness of -0.567 natural log.
The binding fitness of `A40T` is reported as -0.166 natural log.
`E32H` has a binding fitness of -0.819 natural log.
The binding fitness of `T48E` is reported as -0.168 natural log.
For `L45A`, the binding fitness was -1.13 natural log.
With `R53L` the binding fitness was -0.854 natural log.
`T37D` gave a binding fitness of -0.149 natural log.
The binding fitness of `R53K` is reported as -0.428 natural log.
For `K39Q`, the binding fitness was -0.146 natural log.

Set 2
Target: Sal-like protein 4, full length isoform A (SALL4, Homo sapiens, UniProt Q9UJQ4, residues 1-1053)
Chain of UniProt Q9UJQ4 (whole entry, looked up): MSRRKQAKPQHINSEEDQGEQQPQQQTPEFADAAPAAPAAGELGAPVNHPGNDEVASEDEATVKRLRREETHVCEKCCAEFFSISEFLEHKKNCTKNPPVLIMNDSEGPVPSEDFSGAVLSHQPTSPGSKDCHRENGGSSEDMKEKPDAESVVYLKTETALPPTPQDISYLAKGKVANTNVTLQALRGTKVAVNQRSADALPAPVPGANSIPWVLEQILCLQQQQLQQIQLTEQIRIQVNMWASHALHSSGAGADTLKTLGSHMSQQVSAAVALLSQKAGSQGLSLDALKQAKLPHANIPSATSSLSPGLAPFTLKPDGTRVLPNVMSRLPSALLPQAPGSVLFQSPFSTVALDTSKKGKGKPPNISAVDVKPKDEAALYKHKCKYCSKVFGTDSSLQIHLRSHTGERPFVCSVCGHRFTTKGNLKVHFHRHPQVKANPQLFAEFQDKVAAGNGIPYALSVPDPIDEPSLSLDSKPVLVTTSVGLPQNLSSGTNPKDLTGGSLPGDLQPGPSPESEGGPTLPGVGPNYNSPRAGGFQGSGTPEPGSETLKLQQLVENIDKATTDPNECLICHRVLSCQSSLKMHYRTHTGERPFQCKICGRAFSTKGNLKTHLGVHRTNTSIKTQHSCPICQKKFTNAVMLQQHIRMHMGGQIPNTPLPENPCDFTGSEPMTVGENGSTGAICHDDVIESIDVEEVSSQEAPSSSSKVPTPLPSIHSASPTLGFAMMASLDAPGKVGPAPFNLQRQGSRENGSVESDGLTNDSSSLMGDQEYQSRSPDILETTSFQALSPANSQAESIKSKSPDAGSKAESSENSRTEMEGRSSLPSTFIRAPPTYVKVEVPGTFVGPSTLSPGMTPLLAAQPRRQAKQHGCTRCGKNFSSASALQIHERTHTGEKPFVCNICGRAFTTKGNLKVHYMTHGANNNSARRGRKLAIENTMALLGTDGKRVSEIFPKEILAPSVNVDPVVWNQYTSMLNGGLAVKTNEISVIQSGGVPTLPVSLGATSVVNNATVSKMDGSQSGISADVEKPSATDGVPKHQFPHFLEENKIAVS
Method: universal PBM
Form: double-stranded DNA, one strand shown
Sample: in vitro
Tested at: 600 nM
Notes: 8-mer, flanks averaged, mean of replicates
Reading: higher = stronger binding
With `TCCTACCA` the E-score was -0.205.
`ACTCGCGG` has an E-score of -0.252.
With `ATACTTAC` the E-score was 0.248.
`CAAGTCGG` has an E-score of -0.19.
With `AAAATAAG` the E-score was 0.291.
`CAATTGTA` has an E-score of 0.101.
The E-score of `CATTACAC` is reported as 0.191.
`TGTATTAA` gave an E-score of 0.378.
For `CGACCGAA`, the E-score was -0.129.
`AACCTAGG` has an E-score of -0.0204.
`ACGAAACT` has an E-score of 0.0167.
The E-score of `CAGTGTAG` is reported as 0.0307.
The E-score of `AGCTACAA` is reported as 0.0212.
`CAGTCAAG` gave an E-score of -0.0723.
With `ATCCTTAG` the E-score was 0.0747.
`ATCTTAAG` gave an E-score of 0.124.
`AATGTCCA` has an E-score of 0.0791.
With `TAGAAGCA` the E-score was 0.103.
`ACTCAAGA` has an E-score of -0.0575.
With `ACGTCATC` the E-score was -0.15.
The E-score of `AAGCAAGT` is reported as 0.0633.
`AGGCAACA` gave an E-score of -0.139.
The E-score of `AGACGTCC` is reported as -0.157.
With `GTCTTCAC` the E-score was -0.131.
`TAAGTATA` gave an E-score of 0.329.

Set 3
Target: RNA binding protein fox-1 homolog 2, RRM domain, GST-SBP tag (RBFOX2, Homo sapiens, UniProt O43251-10, residues 100-194)
Method: RNA Bind-n-Seq
Form: RNA
Sample: in vitro
Tested at: 365 nM
Notes: natural RNA segment, single round, ends assumed
Relative to: no-protein control
Reading: higher = stronger binding
Construct (chain): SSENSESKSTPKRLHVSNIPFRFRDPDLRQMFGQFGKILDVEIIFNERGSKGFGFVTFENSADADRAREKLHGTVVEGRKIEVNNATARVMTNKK
`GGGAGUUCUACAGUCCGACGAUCUCCCUUAGCUAUAUGAAUUUUGGCAUGUUUCAGAGAGAUCAGUAAAUAAAAUAUUAGAUAAAAUAUAUAUUGUUUGUGUUGAAGUUUUUAACUUUUCAGAAAUUGUUGAUUGGAAUUCUCGGGUGCCAA` — result for “RBNS enrichment (R)”: 2.3.
`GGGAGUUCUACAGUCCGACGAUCAUAAAUGAUAAAAGUAAAUGUAAUGGAAUCUUUUAAUUAGGCUAAGAUAUGCUAUUUCAUAACUUAUGUAGAAUGAUUUUUAUCUAUAUACUUUGUCCAUAAAAUUAUAAUGGAAUUCUCGGGUGCCAA` — result for “RBNS enrichment (R)”: 0.664.
`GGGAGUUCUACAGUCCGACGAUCGGGGCUCUGCCAUGUUACACUAAUUUGAAUAAGCUCUCCCUUUUUCUGUAGAGUUCCCAGCCUCAGUAAUGUUCCAGGCUGCUUCUUGUUCCUUUUCUACCCUUUCUAGUUGGAAUUCUCGGGUGCCAA` — result for “RBNS enrichment (R)”: 1.89.
For `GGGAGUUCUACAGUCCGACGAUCGGAGUAAAAACUGCUUUAUAGCUCCCAAAUUAGGAAGAGAAGAGCAGAAAUCCUCUGGGGCAUUUAACCAUCUGGCAGAAUUGUUGCUGCACCCUUAUCCCAGUUAUAAGUGGAAUUCUCGGGUGCCAA`, “RBNS enrichment (R)” read 0.548.
`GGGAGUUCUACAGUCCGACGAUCCUGGGAGUUCCCUGAACAUCUGUGUGUGUCCCCCUAUGCUCCAGUAUGGAAGAAUGGGGUGGAGGGUCGCCACACCCGGCUCCCCCUGCUUCUCAGCCCCGGGCCUGCCUUGGAAUUCUCGGGUGCCAA` — result for “RBNS enrichment (R)”: 1.04.
`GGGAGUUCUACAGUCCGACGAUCGUACAUAAUGAAAAUAUGCGUGUACAUAUAUUUUCCUUCUUGACACUACUUGAUCAUUAUAUCAAGUGUAUUUUUGUACAUAAUAUAUAUUGGUUAGAAAAAAAUAGAUUUGGAAUUCUCGGGUGCCAA` — result for “RBNS enrichment (R)”: 0.551.
For `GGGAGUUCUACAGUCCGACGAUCUAUUAACCUGCAAAUGGACUGUCAGCACCAGGUGGUGUCUUCUAACUCUGGUCCUUACAUCACAGAGAAAAGCCACCUUGCCCGUUUUUCCUCCAUUCUGUGAACUUCCCUGGAAUUCUCGGGUGCCAA`, “RBNS enrichment (R)” read 0.544.
For `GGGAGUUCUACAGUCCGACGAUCCACUAUUCCCCAGUCUCCCGCUGUGGGGCAGGAACAGGAAGUGACGGGAACCUUGAGGAGGAAACGCCUGUGUUAGGGAGAGAGUGGGUGCGGUGUAGAGGAUGCUCUUGUGGAAUUCUCGGGUGCCAA`, “RBNS enrichment (R)” read 0.857.
`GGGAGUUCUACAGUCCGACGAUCGUUAUUUGAAGCUGCAGAGCCACACCCUUGGCCUAACCCCUAGCAGACUGAGGCUCUCCCAUGCCUACCAGGGGGUGUUUUCCUUCCUAAACAGAACACUGGAUUCUUCCUGGAAUUCUCGGGUGCCAA`: “RBNS enrichment (R)” 0.218.
`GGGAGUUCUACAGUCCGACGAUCCUACGUGGGAACAUCCUGUGAGCAAGGUGGCCACGAAGAAUAGAAAUAUCCUGAGCUUUGAGUGUCCUUUCACAGAGUGAACAAAACUGGUGUGGUGUAGACACGGCUUCUGGAAUUCUCGGGUGCCAA` — result for “RBNS enrichment (R)”: 0.411.
`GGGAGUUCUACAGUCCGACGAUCGAUACAGUGAAACAAUUAAGGUGAGCAAAUAGUUUUAACUUUUCUUUUUUUUUUUUAAGUUUCAUUCUUCCUAGAAUAUUUUUCUAACAAUUUUUAUUUCAGCUUUAAAGUGGAAUUCUCGGGUGCCAA`: “RBNS enrichment (R)” 0.922.
`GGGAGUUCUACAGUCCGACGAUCUCUUCUAACUCUCCUUCUUCUGAAUUGUGCAGAGACUCUGUUAACUUCCCUUUUUGCACUUAGAUAACUUCCUACUUCAACCCCCUCCUUUAUCUUGGAUUUCUAAAGUUUGGAAUUCUCGGGUGCCAA`: “RBNS enrichment (R)” 0.567.

Set 4
Target: CCNE1, cyclin fold, Cln2 fusion (human)
Method: yeast growth competition, sequencing
Sample: yeast
Notes: strong parent motif
Relative to: not given
Reading: higher = stronger binding
Parent: RBL1 docking peptide (human); GSAKRRLFGEDPP; partner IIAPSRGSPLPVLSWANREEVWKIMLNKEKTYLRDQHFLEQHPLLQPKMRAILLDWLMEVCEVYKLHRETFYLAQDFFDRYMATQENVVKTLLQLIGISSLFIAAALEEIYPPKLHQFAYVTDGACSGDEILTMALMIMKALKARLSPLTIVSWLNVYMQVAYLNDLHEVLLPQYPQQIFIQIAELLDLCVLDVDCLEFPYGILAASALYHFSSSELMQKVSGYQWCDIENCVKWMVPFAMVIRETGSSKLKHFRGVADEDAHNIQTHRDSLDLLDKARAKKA
For `P12S`, “normalised enrichment score” read 7.06.
Under “normalised enrichment score”, `S2Y` is recorded as 5.
Under “normalised enrichment score”, `G9R` is recorded as 6.97.
`K4L` — result for “normalised enrichment score”: 0.465.
Under “normalised enrichment score”, `G9N` is recorded as 7.3.
`F8N`: “normalised enrichment score” -0.412.
`A3M`: “normalised enrichment score” 1.19.
For `P12L`, “normalised enrichment score” read 6.34.
For `S2I`, “normalised enrichment score” read 3.68.
`F8Y`: “normalised enrichment score” 0.879.
`S2W`: “normalised enrichment score” 3.39.
`R5L` — result for “normalised enrichment score”: 0.76.
Under “normalised enrichment score”, `R6M` is recorded as 3.24.
`R6Q` — result for “normalised enrichment score”: 3.98.
For `L7R`, “normalised enrichment score” read 0.0891.
`S2N` — result for “normalised enrichment score”: 6.36.
`P13M` — result for “normalised enrichment score”: 5.24.
Under “normalised enrichment score”, `L7H` is recorded as -0.597.
Under “normalised enrichment score”, `K4P` is recorded as 0.591.
For `A3C`, “normalised enrichment score” read 6.1.
`P12C`: “normalised enrichment score” 6.16.
For `D11G`, “normalised enrichment score” read 5.48.
`P13I` — result for “normalised enrichment score”: 6.77.
For `E10K`, “normalised enrichment score” read 3.53.
For `P12K`, “normalised enrichment score” read 5.98.

Set 5
Target: ABI1, truncated, D143A, DHFR fusion (Arabidopsis thaliana)
Method: DHFR PCA, deep sequencing
Sample: yeast
Notes: methotrexate growth selection, single substitutions
Together with: (+)-ABA 4.8 µM
Relative to: wild-type fitted maximum
Reading: higher = stronger binding
Parent: PYL1, truncated, DHFR fusion (Arabidopsis thaliana); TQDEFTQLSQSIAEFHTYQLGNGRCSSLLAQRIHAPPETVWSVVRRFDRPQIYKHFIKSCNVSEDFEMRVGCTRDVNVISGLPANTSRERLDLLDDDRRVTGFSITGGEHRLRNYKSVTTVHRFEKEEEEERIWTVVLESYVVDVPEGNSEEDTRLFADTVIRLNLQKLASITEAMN
`T86Q` — result for “relative binding score”: 46.1%.
For `T173I`, “relative binding score” read 38%.
`F66M` — result for “relative binding score”: 53.5%.
`F157S` — result for “relative binding score”: -7.5%.
`I57R` — result for “relative binding score”: 1.95%.
Under “relative binding score”, `V143A` is recorded as 6.53%.
`E14R`: “relative binding score” 44%.
`S27W`: “relative binding score” 1.08%.
`P37F` — result for “relative binding score”: 13%.
`S26P` — result for “relative binding score”: 5.6%.
`S80F`: “relative binding score” 41.8%.
`F124L`: “relative binding score” 85.5%.
Under “relative binding score”, `G23H` is recorded as 55.7%.
Under “relative binding score”, `D75F` is recorded as 74.9%.

Single results of other studies
`PhoQ, residues 284 288 289 292 302 303 DDMDFR` has a fold induction of 0.573 (PhoP, residues 12 14 15 18 19 IFFTR (Escherichia coli, UniProt P23836); Sort-seq, item: YFP reporter; E. coli; PhoQ-PhoP variant library, together with: 10 µM Mg2+; relative to: high Mg2+ state, higher = stronger signaling).

For quick reference, copied from above (set 4):
`F8N`: “normalised enrichment score” -0.412.
For `E10K`, “normalised enrichment score” read 3.53.
Under “normalised enrichment score”, `K4P` is recorded as 0.591.
Under “normalised enrichment score”, `R6M` is recorded as 3.24.
`S2N` — result for “normalised enrichment score”: 6.36.
For `S2I`, “normalised enrichment score” read 3.68.
`S2W`: “normalised enrichment score” 3.39.
`A3M`: “normalised enrichment score” 1.19.
